{"data": "Published values collected from several papers", "note": "Each numbered part is a random draw from the data of one study; scales do not carry over between parts.", "chain of UniProt Q6ZWH5 (whole entry, looked up)": "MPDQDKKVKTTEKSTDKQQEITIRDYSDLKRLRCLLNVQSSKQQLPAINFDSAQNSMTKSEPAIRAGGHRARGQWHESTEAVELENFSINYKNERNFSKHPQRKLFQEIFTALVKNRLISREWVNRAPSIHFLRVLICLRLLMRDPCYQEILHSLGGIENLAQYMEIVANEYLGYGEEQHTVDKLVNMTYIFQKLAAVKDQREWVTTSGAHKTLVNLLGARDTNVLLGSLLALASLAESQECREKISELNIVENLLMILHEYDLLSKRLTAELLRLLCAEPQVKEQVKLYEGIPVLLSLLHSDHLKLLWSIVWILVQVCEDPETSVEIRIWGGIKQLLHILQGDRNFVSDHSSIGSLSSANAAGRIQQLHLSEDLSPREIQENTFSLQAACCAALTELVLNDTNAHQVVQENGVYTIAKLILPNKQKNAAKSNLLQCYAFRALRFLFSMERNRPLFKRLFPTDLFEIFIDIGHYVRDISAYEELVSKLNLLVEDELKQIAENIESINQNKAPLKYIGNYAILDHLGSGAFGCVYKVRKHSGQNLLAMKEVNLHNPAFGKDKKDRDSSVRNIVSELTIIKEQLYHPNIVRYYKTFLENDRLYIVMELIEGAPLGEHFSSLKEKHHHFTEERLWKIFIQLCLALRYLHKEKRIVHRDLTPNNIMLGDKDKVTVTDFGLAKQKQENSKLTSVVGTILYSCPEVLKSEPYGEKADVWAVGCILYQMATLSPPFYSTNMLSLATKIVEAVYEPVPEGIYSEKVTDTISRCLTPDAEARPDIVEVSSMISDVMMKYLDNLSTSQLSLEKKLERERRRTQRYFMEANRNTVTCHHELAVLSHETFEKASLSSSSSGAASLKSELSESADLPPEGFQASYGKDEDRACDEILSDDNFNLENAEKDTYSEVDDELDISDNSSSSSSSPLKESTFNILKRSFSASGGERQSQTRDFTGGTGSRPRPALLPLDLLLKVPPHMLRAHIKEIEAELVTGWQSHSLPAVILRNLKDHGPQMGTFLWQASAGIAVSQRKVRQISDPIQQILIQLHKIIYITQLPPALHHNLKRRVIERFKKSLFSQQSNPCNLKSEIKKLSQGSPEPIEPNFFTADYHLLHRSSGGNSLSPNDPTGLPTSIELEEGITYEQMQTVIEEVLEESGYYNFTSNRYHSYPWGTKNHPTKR", "chain of UniProt O75914 (whole entry, looked up)": "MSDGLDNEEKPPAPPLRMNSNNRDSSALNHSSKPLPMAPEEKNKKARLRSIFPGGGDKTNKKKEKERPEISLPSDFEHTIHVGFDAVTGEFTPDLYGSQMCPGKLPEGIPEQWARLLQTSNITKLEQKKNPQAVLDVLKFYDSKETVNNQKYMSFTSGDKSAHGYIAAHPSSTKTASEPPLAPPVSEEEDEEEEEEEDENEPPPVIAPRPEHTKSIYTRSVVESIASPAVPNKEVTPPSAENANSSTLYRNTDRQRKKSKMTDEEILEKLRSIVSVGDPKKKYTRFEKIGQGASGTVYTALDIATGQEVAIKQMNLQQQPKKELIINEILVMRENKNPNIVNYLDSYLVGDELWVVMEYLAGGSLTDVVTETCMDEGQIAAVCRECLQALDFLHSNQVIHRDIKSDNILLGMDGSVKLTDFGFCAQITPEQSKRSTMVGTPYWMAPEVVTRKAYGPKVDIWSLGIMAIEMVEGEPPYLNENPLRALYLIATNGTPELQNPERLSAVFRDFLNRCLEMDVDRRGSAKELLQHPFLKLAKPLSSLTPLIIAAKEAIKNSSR", "chain of UniProt P31152 (whole entry, looked up)": "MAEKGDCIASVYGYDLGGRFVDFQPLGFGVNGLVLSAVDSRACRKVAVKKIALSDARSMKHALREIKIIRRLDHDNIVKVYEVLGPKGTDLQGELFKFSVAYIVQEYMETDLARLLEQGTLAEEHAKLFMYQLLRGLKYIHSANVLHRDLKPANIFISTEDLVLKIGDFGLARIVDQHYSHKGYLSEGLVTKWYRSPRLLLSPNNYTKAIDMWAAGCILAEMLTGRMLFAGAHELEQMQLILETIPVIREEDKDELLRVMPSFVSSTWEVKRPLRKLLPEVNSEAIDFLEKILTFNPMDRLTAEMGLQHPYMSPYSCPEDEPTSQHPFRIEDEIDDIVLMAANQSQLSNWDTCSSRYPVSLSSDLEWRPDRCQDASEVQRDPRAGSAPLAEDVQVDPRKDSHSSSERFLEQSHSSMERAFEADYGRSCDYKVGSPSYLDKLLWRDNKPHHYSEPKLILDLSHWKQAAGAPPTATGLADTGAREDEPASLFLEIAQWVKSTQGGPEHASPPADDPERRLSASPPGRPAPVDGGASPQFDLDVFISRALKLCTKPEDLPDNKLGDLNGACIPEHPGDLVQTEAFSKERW", "chain of UniProt Q8TD19 (whole entry, looked up)": "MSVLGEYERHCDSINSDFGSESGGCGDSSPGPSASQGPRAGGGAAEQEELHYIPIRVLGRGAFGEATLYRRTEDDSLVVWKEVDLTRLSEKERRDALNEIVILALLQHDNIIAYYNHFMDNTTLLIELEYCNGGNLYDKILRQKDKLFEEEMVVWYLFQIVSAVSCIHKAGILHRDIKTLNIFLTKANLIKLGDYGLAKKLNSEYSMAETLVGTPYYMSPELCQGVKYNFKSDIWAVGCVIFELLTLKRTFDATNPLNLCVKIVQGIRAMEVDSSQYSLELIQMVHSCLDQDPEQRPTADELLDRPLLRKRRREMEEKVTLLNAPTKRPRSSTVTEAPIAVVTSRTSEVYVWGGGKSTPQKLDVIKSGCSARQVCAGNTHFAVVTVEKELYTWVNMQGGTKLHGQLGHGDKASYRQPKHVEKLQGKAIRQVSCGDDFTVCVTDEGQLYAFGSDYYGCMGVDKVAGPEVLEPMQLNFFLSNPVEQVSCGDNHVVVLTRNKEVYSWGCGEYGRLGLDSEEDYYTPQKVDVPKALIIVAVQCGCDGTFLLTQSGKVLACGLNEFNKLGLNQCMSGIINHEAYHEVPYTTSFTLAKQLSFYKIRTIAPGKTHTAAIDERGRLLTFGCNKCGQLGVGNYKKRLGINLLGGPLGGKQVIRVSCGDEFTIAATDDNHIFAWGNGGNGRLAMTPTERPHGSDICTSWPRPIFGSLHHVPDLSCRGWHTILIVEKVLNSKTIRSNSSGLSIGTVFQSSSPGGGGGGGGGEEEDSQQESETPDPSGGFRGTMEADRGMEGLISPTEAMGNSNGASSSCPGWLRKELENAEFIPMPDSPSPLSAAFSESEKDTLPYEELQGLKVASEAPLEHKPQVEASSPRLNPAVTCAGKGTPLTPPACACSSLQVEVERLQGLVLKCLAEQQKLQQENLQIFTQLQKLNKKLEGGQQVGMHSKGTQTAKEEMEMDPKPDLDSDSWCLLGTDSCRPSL", "chain of UniProt P41240 (whole entry, looked up)": "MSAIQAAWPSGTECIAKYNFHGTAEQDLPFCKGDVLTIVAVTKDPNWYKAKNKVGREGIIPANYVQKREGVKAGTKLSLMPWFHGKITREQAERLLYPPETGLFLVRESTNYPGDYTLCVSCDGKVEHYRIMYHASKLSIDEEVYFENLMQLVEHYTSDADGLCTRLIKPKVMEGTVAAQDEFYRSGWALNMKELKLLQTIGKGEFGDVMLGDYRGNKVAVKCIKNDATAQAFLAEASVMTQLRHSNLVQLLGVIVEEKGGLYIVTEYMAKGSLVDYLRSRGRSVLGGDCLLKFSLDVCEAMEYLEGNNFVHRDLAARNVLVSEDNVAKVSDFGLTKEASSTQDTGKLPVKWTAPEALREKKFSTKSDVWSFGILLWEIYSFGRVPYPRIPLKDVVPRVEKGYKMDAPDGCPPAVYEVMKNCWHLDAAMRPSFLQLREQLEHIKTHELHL", "chain of UniProt O14730 (whole entry, looked up)": "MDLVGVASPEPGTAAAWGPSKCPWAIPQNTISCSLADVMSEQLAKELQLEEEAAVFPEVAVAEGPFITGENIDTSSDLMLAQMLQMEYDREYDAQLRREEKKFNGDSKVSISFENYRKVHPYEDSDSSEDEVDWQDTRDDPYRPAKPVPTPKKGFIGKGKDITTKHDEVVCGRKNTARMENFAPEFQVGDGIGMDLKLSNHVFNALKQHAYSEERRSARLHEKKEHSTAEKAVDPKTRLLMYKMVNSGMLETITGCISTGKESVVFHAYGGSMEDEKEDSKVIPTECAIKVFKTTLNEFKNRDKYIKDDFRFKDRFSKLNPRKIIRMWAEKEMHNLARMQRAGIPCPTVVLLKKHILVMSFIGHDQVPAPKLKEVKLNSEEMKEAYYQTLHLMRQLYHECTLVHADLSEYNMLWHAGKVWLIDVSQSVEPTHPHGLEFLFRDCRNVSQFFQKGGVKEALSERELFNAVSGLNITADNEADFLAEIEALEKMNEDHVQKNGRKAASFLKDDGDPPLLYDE"}
{"data": "Series 1", "SMILES": "C=CC(=O)N1CCC([C@@H]2CCNc3c(C(N)=O)c(-c4ccc(Oc5ccccc5)cc4)nn32)CC1", "tested at": "1 µM"}
{"target": "PIK3CA (Homo sapiens, UniProt P42336, I800L)", "effect on": "enzyme activity", "mode": "inhibitor", "inhibition": "45%"}
{"target": "Ribosomal protein S6 kinase alpha-5, C-terminal kinase domain (RPS6KA5, Homo sapiens, UniProt O75582)", "mode": "inhibitor", "inhibition": "0%"}
{"target": "EIF2AK1 (Homo sapiens, UniProt Q9BQI3)", "effect on": "enzyme activity", "mode": "inhibitor", "inhibition": "1%"}
{"target": "SGK2 (Homo sapiens, UniProt Q9HBY8)", "effect on": "enzyme activity", "mode": "inhibitor", "inhibition": "0%"}
{"target": "NEK10 (Homo sapiens, UniProt Q6ZWH5)", "effect on": "enzyme activity", "mode": "inhibitor", "inhibition": "0%"}
{"target": "MAP3K3 (Homo sapiens, UniProt Q99759)", "effect on": "enzyme activity", "mode": "inhibitor", "inhibition": "14%"}
{"target": "EPHA7 (Homo sapiens, UniProt Q15375)", "effect on": "cell-free assay", "inhibition": "15%"}
{"target": "CDK17 (Homo sapiens, UniProt Q00537)", "effect on": "enzyme activity", "mode": "inhibitor", "inhibition": "3%"}
{"data": "Series 2", "target": "Calcium/calmodulin-dependent protein kinase type II subunit alpha (CAMK2A, Homo sapiens, UniProt Q9UQM7)", "effect on": "enzyme activity", "mode": "inhibitor", "tested at": "10 µM", "chain of UniProt Q9UQM7 (whole entry, looked up)": "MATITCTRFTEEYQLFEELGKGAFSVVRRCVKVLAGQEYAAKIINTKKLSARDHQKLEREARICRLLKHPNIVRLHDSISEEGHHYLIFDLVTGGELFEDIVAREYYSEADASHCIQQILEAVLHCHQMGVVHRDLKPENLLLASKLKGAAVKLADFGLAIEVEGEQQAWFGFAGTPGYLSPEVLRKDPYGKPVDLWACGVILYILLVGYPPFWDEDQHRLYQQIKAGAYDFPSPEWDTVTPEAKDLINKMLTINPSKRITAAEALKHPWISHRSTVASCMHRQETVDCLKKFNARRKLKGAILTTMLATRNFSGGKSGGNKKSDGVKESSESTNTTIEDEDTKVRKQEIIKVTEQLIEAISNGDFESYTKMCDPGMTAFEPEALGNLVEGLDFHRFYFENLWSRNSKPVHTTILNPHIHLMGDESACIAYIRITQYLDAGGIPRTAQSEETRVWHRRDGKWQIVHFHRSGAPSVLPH"}
{"SMILES": "O=C(O)c1ccc(=O)oc1", "inhibition": "-26%"}
{"SMILES": "CC(=O)N[C@H](C(=O)O)C(C)C", "inhibition": "57%"}
{"SMILES": "O=C1N[C@@H](Cc2ccccc2)C(=O)N2CCC[C@@H]12", "inhibition": "-53%"}
{"SMILES": "Cc1ccc(C(C)C)c(O)c1", "inhibition": "-8%"}
{"SMILES": "CC[C@H]1OC(=O)[C@H](C)C(=O)[C@H](C)[C@@H](O[C@@H]2O[C@H](C)C[C@H](N(C)C)[C@H]2O)[C@](C)(OC)C[C@@H](C)C(=O)[C@H](C)[C@H]2N(CCCCn3cnc(-c4cccnc4)c3)C(=O)O[C@]12C", "inhibition": "1%"}
{"SMILES": "CCN[C@H]1C[C@H](C)S(=O)(=O)c2sc(S(N)(=O)=O)cc21", "inhibition": "-8%"}
{"SMILES": "CC1CCc2c(N3CCC(O)CC3)c(F)cc3c(=O)c(C(=O)O)cn1c23 (centres unmarked)", "inhibition": "0%"}
{"SMILES": "CC(C)CCC[C@@H](C)[C@H]1CC[C@H]2[C@@H]3CCC4=CC(=O)CC[C@]4(C)[C@H]3CC[C@]12C", "inhibition": "-8%"}
{"SMILES": "CN(C)CCC=C1c2ccccc2C=Cc2ccccc21", "inhibition": "-3%"}
{"SMILES": "CC1(C)CC[C@]2(C(=O)O)CCC3=C(CC[C@@H]4[C@@]5(C)C[C@H](O)[C@H](O)[C@@](C)(C(=O)O)[C@@H]5CC[C@@]34C)[C@@H]2C1", "inhibition": "8%"}
{"SMILES": "C=C(CC[C@@H](C(=O)O)[C@H]1[C@H](O)C[C@@]2(C)C3=C(CC[C@]12C)[C@@]1(C)CC[C@H](OC(C)=O)C(C)(C)[C@@H]1CC3)C(C)C", "inhibition": "2%"}
{"SMILES": "CC[C@H]1OC(=O)[C@H](C)[C@@H](O[C@H]2C[C@@](C)(OC)[C@@H](O)[C@H](C)O2)[C@H](C)[C@@H](O[C@@H]2O[C@H](C)C[C@H](N(C)C)[C@H]2O)[C@](C)(O)C[C@@H](C)CN(C)[C@H](C)[C@@H](O)[C@]1(C)O", "inhibition": "-2%"}
{"SMILES": "CO[C@@H]1[C@@H](O[C@@H]2O[C@H](C)[C@@H](O[C@H]3C[C@@](C)(O)[C@@H](OC(=O)CC(C)C)[C@H](C)O3)[C@H](N(C)C)[C@H]2O)[C@@H](CC=O)C[C@@H](C)[C@@H](O)/C=C/C=C/C[C@@H](C)OC(=O)C[C@H]1OC(C)=O", "inhibition": "-2%"}
{"SMILES": "CN1CCC(=C2c3ccccc3CCc3cccnc32)CC1", "inhibition": "-1%"}
{"data": "Series 3", "target": "Serine/threonine-protein kinase STK11 (STK11, Homo sapiens, UniProt Q15831)", "effect on": "enzyme activity", "mode": "inhibitor", "tested at": "0.5 µM", "relative to": "control", "Construct (Q15831 1-433)": "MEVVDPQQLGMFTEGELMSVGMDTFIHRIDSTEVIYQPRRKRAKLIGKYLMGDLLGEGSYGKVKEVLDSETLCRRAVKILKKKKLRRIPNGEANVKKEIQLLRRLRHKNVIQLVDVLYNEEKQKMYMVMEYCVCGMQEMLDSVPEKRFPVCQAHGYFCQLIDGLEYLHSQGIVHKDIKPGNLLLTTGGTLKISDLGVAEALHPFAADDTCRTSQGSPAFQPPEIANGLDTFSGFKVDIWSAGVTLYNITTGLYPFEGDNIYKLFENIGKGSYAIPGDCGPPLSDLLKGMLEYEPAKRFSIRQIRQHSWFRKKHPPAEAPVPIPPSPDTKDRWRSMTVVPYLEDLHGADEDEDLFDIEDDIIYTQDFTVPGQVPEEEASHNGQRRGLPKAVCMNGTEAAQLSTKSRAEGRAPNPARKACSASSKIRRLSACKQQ"}
{"Compound": "COc1ccc(OC)c2c(=S)c3ccccc3[nH]c12", "remaining activity [%]": 84.4}
{"Compound": "COc1ccc(C(=O)Nc2sc3c(c2C(N)=O)CCCC3)cc1OC", "remaining activity [%]": 103}
{"Compound": "COc1ccc(CNC(=O)Nc2ncc([N+](=O)[O-])s2)cc1", "remaining activity [%]": 100}
{"Compound": "O=C1NC(=O)C(c2cn(CCCn3ccnc3)c3ccccc23)=C1Nc1ccccc1", "remaining activity [%]": 89.9}
{"Compound": "O=C(Nc1cccc(Nc2cc(Nc3cccc(C(F)(F)F)c3)ncn2)c1)C1CC1", "remaining activity [%]": 100}
{"Compound": "Cc1ccc(Nc2nccc(N(C)c3ccc4c(C)n(C)nc4c3)n2)cc1S(N)(=O)=O", "remaining activity [%]": 92.1}
{"Compound": "CO[C@H]1C[C@@H]2CC[C@@H](C)[C@@](O)(O2)C(=O)C(=O)N2CCCC[C@H]2C(=O)O[C@H]([C@H](C)C[C@@H]2CC[C@@H](O)[C@H](OC)C2)CC(=O)[C@H](C)/C=C(\\C)[C@@H](O)[C@@H](OC)C(=O)[C@H](C)C[C@H](C)/C=C/C=C/C=C/1C", "remaining activity [%]": 91.1}
{"Compound": "Oc1ccc(-c2nc(-c3ccncc3)c(-c3ccc(F)cc3)[nH]2)cc1", "remaining activity [%]": 93.1}
{"Compound": "CC(C)[C@H](CO)Nc1nc(Nc2cc(N)cc(Cl)c2)c2ncn(C(C)C)c2n1", "remaining activity [%]": 60.2}
{"Compound": "Cc1cccc(-c2[nH]c(C(C)(C)C)nc2-c2ccc3c(c2)OCO3)n1", "remaining activity [%]": 91.3}
{"Compound": "Cn1c2ccccc2c2c3c(c4c5ccccc5n(CCC#N)c4c21)CNC3=O", "remaining activity [%]": 31.8}
{"Compound": "CCOC(=O)c1c(C)[nH]c(/C=C2\\C(=O)Nc3ccccc32)c1C", "remaining activity [%]": 85.2}
{"Compound": "C#Cc1cccc(Nc2ncnc3cc(OCCOC)c(OCCOC)cc23)c1", "remaining activity [%]": 106}
{"Compound": "O=C(O)c1ccc2c3c1cccc3c(=O)n1c3ccccc3nc21", "remaining activity [%]": 96.6}
{"Compound": "N#CC(C#N)=C(N)/C(C#N)=C/c1ccc(O)cc1", "remaining activity [%]": 96.5}
{"data": "Series 4", "Structure (SMILES)": "C[C@@H]1CN(c2cc(-c3n[nH]c4ccc(OC5(C)CC5)cc34)ncn2)C[C@H](C)O1", "effect on": "cell-free assay", "technique": "competition with immobilised ligand", "tested at": "0.1 µM"}
{"target": "MAPK3 (Homo sapiens, UniProt P27361)", "remaining binding [%]": 87}
{"target": "CDKL3 (Homo sapiens, UniProt Q8IVW4)", "remaining binding [%]": 75}
{"target": "NEK9 (Homo sapiens, UniProt Q8TD19)", "remaining binding [%]": 100}
{"target": "NEK6 (Homo sapiens, UniProt Q9HC98)", "remaining binding [%]": 100}
{"target": "RIPK1 (Homo sapiens, UniProt Q13546)", "remaining binding [%]": 100}
{"target": "IKBKE (Homo sapiens, UniProt Q14164)", "remaining binding [%]": 74}
{"target": "PKMYT1 (Homo sapiens, UniProt Q99640)", "remaining binding [%]": 96}
{"target": "EGFR (Homo sapiens, UniProt P00533, G719C)", "remaining binding [%]": 63}
{"target": "PAK3 (Homo sapiens, UniProt O75914)", "remaining binding [%]": 83}
{"target": "RIOK3 (Homo sapiens, UniProt O14730)", "remaining binding [%]": 100}
{"target": "ULK3 (Homo sapiens, UniProt Q6PHR2)", "remaining binding [%]": 78}
{"target": "PRKD2 (Homo sapiens, UniProt Q9BZL6)", "remaining binding [%]": 100}
{"target": "MAPK4 (Homo sapiens, UniProt P31152)", "remaining binding [%]": 83}
{"target": "COQ8A (Homo sapiens, UniProt Q8NI60)", "remaining binding [%]": 85}
{"target": "MARK2 (Homo sapiens, UniProt Q7KZI7)", "remaining binding [%]": 100}
{"target": "MAST1 (Homo sapiens, UniProt Q9Y2H9)", "remaining binding [%]": 70}
{"target": "Tyrosine-protein kinase ABL1, non-phosphorylated (ABL1, Homo sapiens, UniProt P00519, Q252H)", "remaining binding [%]": 100}
{"target": "CSK (Homo sapiens, UniProt P41240)", "remaining binding [%]": 100}
{"target": "MAPK9 (Homo sapiens, UniProt P45984)", "remaining binding [%]": 72}
{"target": "STK32C (Homo sapiens, UniProt Q86UX6)", "remaining binding [%]": 89}
{"target": "TTK (Homo sapiens, UniProt P33981)", "remaining binding [%]": 74}
{"target": "Receptor-type tyrosine-protein kinase FLT3, autoinhibited (FLT3, Homo sapiens, UniProt P36888)", "remaining binding [%]": 87}
{"target": "TESK1 (Homo sapiens, UniProt Q15569)", "remaining binding [%]": 75}
{"target": "CDK11A (Homo sapiens, UniProt Q9UQ88)", "remaining binding [%]": 93}
{"target": "CSNK1A1 (Homo sapiens, UniProt P48729)", "remaining binding [%]": 73}
{"note": "A few entries again (series 4):"}
{"target": "RIPK1 (Homo sapiens, UniProt Q13546)", "remaining binding [%]": 100}
{"target": "CDK11A (Homo sapiens, UniProt Q9UQ88)", "remaining binding [%]": 93}
{"target": "NEK9 (Homo sapiens, UniProt Q8TD19)", "remaining binding [%]": 100}
{"target": "PAK3 (Homo sapiens, UniProt O75914)", "remaining binding [%]": 83}
{"target": "PKMYT1 (Homo sapiens, UniProt Q99640)", "remaining binding [%]": 96}
{"target": "MAPK9 (Homo sapiens, UniProt P45984)", "remaining binding [%]": 72}
{"target": "COQ8A (Homo sapiens, UniProt Q8NI60)", "remaining binding [%]": 85}
{"target": "MAPK3 (Homo sapiens, UniProt P27361)", "remaining binding [%]": 87}
{"target": "MAST1 (Homo sapiens, UniProt Q9Y2H9)", "remaining binding [%]": 70}
{"target": "IKBKE (Homo sapiens, UniProt Q14164)", "remaining binding [%]": 74}
